Results from different studies.
A part holds a random share of what one study measured.
Chain of UniProt P42336 (whole entry, unmodified, looked up): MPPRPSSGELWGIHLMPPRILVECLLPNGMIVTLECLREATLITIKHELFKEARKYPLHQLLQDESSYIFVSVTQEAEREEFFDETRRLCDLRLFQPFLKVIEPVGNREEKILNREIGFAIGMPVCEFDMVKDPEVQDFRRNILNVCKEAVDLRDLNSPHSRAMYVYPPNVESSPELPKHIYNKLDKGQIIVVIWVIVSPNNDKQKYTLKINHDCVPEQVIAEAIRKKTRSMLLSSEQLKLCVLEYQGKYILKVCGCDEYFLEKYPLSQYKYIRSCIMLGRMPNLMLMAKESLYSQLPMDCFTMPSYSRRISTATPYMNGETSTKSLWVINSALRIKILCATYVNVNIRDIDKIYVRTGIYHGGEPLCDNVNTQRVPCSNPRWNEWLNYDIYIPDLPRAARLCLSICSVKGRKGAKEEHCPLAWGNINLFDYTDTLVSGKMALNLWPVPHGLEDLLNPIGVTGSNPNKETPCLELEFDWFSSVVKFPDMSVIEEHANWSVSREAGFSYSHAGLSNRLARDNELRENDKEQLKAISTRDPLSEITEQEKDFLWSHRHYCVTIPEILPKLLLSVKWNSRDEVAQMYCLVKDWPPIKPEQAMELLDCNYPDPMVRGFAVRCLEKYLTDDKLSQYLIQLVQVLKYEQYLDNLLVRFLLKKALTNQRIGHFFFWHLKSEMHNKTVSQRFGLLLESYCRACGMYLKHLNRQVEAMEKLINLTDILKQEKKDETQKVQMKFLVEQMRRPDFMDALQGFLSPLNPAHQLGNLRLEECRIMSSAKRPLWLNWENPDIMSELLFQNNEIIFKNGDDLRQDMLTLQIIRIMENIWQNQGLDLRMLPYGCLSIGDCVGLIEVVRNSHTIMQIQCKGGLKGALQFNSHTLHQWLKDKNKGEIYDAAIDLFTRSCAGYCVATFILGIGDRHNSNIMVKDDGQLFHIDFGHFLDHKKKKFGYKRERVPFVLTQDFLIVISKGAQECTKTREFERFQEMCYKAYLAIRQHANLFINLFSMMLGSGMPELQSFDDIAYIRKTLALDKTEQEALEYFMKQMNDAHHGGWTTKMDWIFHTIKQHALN
Chain of UniProt P36894 (whole entry, looked up): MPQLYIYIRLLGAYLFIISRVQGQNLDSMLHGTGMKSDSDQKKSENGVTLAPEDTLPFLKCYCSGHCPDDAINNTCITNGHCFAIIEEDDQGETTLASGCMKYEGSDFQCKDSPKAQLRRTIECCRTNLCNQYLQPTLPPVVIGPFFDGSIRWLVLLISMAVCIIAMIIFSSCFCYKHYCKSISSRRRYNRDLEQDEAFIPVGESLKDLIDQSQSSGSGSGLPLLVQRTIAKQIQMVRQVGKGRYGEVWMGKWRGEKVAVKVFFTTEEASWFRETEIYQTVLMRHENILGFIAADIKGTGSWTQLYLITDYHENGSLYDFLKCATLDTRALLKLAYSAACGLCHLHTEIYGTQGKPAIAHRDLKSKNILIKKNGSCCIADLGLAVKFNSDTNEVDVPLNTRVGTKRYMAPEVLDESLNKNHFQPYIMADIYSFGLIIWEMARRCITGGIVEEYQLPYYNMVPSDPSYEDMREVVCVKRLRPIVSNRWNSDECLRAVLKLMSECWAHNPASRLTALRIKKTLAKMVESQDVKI
Chain of UniProt P07947 (whole entry, looked up): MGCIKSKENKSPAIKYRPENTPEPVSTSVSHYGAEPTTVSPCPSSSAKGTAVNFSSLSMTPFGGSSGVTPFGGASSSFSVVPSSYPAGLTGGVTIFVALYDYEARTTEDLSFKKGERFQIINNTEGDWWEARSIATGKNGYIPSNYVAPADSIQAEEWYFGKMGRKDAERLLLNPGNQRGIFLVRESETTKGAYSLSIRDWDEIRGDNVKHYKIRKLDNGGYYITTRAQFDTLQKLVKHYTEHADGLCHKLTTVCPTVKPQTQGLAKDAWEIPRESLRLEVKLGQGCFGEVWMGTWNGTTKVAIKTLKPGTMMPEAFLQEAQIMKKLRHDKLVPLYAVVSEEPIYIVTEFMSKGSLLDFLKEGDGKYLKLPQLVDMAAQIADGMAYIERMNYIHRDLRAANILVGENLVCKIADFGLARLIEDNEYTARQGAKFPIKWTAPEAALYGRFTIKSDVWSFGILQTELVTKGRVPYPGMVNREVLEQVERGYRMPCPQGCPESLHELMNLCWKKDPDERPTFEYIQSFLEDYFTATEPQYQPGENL
Chain of UniProt P07332 (whole entry, looked up): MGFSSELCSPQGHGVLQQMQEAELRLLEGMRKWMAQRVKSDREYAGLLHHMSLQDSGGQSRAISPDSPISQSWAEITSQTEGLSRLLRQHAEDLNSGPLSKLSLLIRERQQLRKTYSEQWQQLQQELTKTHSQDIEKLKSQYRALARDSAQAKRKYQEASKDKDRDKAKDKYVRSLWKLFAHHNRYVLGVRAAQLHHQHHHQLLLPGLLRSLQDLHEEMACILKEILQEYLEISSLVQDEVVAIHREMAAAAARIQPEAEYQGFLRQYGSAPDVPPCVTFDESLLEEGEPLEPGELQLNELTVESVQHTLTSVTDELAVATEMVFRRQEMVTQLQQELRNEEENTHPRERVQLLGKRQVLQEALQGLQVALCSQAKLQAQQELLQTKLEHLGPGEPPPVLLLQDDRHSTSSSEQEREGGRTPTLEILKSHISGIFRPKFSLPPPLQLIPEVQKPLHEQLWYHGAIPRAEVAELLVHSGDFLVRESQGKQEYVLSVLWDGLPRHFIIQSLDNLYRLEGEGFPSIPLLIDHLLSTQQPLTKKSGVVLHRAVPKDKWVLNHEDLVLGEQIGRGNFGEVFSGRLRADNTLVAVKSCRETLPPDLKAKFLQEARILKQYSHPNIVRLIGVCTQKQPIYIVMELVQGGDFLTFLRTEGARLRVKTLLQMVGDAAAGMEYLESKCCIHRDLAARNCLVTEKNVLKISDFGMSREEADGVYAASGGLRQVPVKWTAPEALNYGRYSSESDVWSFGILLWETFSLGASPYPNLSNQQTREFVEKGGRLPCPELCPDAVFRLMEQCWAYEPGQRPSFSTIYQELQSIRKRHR

Series 1
Structure (SMILES): CCN1/C(=C/C=C2\CCCC(/C=C/C3=[N+](CC)c4ccccc4C3(C)C)=C2NCCCCCCCCN2CCC(Nc3nc4ccccc4n3Cc3ccc(F)cc3)CC2)C(C)(C)c2ccccc21
Cell line: U-87 MG
Tested at: concentration not given
Relative to: DMSO
Measurement: log2 fold change
measured: SUOX mRNA: -0.825
measured: GLB1L mRNA: -0.881
measured: ABI1 mRNA: 1.43
measured: TCEA1 mRNA: 0.922
measured: TUBA1C mRNA: -1.19
measured: NDE1 mRNA: -0.925
measured: ALDH1L2 mRNA: 1.02
measured: PLEKHO1 mRNA: -0.976
measured: SLFN12 mRNA: -1.72
measured: TP53BP2 mRNA: 1.16
measured: BLOC1S1 mRNA: -1.02
measured: CA13 mRNA: 1.32
measured: CENPW mRNA: -1.98
measured: TMEM182 mRNA: 0.866
measured: SGO2 mRNA: -1.49
measured: NKAP mRNA: 1.24

Series 2
SMILES: Cc1ccc(O)c(C)c1-c1cnc2[nH]c(-c3cnc(N4CCC(CN5CCN(c6ccc7c(c6)C(=O)N(C6CCC(=O)NC6=O)C7=O)CC5)CC4)nc3)cc2c1C#N (centres unmarked)
Target: Membrane-associated tyrosine- and threonine-specific cdc2-inhibitory kinase (PKMYT1, Homo sapiens, UniProt Q99640)
Chain of UniProt Q99640 (whole entry, looked up): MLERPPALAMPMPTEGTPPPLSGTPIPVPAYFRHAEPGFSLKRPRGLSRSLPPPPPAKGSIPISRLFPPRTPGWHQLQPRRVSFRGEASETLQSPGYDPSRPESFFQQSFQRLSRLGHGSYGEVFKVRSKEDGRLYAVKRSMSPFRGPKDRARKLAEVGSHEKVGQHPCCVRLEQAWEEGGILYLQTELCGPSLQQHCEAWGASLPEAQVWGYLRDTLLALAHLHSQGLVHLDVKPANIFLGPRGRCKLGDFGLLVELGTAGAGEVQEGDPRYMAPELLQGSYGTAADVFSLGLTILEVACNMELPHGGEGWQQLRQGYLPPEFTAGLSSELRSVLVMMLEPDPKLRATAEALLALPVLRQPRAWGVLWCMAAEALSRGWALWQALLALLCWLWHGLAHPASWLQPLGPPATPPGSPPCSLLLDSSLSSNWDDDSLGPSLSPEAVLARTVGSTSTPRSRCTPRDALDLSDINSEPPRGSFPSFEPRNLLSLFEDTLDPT
Measurement: inhibition
cell-free assay, inhibitor, TR-FRET; 1 µM: 99.3%
0.00412 µM: 43.2%
cell-free assay, inhibitor, TR-FRET; 1.37 nM: 18.7%
0.01235 µM: 79.3%
0.1111 µM: 99.1%
0.00137 µM: 14.3%
0.00046 µM: 5.77%
1 µM: 99.7%
cell-free assay, inhibitor, TR-FRET; 12.35 nM: 84.2%
cell-free assay, inhibitor, TR-FRET; 0.1111 µM: 101%

Series 3
Compound: COc1cc(-c2nc3ccc(C(=O)NCCCN(C)C)cc3n2C2CCC2)cc(OC)c1OC
Read-out: binding
Method: competition with immobilised ligand
Tested at: 1 µM
Measurement: remaining binding
Calcium/calmodulin-dependent protein kinase type II subunit gamma (CAMK2G, Homo sapiens, UniProt Q13555): 99%
Phosphatidylinositol 4,5-bisphosphate 3-kinase catalytic subunit alpha isoform (PIK3CA, Homo sapiens, UniProt P42336, H1047Y): 68%
Mitogen-activated protein kinase kinase kinase 4 (MAP3K4, Homo sapiens, UniProt Q9Y6R4): 98%
Membrane-associated tyrosine- and threonine-specific cdc2-inhibitory kinase (PKMYT1, Homo sapiens, UniProt Q99640): 90%
Epidermal growth factor receptor (EGFR, Homo sapiens, UniProt P00533, L861Q): 96%
Calcium/calmodulin-dependent protein kinase type II subunit alpha (CAMK2A, Homo sapiens, UniProt Q9UQM7): 88%
Receptor-type tyrosine-protein kinase FLT3 (FLT3, Homo sapiens, UniProt P36888, R834Q): 80%
cAMP-dependent protein kinase catalytic subunit alpha (PRKACA, Homo sapiens, UniProt P17612): 94%
Serine/threonine-protein kinase DCLK1 (DCLK1, Homo sapiens, UniProt O15075): 93%
Serine/threonine-protein kinase PLK1 (PLK1, Homo sapiens, UniProt P53350): 99%
Serine/threonine-protein kinase PAK 3 (PAK3, Homo sapiens, UniProt O75914): 37%
MAP kinase-interacting serine/threonine-protein kinase 2 (MKNK2, Homo sapiens, UniProt Q9HBH9): 67%
Tyrosine-protein kinase Fes/Fps (FES, Homo sapiens, UniProt P07332): 100%
Bone morphogenetic protein receptor type-1A (BMPR1A, Homo sapiens, UniProt P36894): 32%
Tyrosine-protein kinase ABL1, phosphorylated (ABL1, Homo sapiens, UniProt P00519, E255K): 61%
Tyrosine-protein kinase Yes (YES1, Homo sapiens, UniProt P07947): 88%

Series 4
SMILES: C[C@@H]1CN(c2ccc(-c3cc(C(=O)NCCOCCOCCOCCOCCNC(=O)Cn4cc(-c5[nH]cc(C(=O)N[C@@H](CC(N)=O)c6ccc(F)c(Cl)c6)c5-c5ccc(Cl)cc5F)cn4)ccc3F)cc2NC(=O)c2c[nH]c(=O)cc2C(F)(F)F)C[C@H](C)N1C
Read-out: thermal unfolding
Method: differential scanning fluorimetry
Tested at: 5.5 µM
Direction: higher = more unfolded
Measurement: SYPRO Orange fluorescence
DCAF1: DDB1- and CUL4-associated factor 1 (DCAF1, Homo sapiens, UniProt Q9Y4B6)
Chain of UniProt Q9Y4B6 (whole entry, looked up): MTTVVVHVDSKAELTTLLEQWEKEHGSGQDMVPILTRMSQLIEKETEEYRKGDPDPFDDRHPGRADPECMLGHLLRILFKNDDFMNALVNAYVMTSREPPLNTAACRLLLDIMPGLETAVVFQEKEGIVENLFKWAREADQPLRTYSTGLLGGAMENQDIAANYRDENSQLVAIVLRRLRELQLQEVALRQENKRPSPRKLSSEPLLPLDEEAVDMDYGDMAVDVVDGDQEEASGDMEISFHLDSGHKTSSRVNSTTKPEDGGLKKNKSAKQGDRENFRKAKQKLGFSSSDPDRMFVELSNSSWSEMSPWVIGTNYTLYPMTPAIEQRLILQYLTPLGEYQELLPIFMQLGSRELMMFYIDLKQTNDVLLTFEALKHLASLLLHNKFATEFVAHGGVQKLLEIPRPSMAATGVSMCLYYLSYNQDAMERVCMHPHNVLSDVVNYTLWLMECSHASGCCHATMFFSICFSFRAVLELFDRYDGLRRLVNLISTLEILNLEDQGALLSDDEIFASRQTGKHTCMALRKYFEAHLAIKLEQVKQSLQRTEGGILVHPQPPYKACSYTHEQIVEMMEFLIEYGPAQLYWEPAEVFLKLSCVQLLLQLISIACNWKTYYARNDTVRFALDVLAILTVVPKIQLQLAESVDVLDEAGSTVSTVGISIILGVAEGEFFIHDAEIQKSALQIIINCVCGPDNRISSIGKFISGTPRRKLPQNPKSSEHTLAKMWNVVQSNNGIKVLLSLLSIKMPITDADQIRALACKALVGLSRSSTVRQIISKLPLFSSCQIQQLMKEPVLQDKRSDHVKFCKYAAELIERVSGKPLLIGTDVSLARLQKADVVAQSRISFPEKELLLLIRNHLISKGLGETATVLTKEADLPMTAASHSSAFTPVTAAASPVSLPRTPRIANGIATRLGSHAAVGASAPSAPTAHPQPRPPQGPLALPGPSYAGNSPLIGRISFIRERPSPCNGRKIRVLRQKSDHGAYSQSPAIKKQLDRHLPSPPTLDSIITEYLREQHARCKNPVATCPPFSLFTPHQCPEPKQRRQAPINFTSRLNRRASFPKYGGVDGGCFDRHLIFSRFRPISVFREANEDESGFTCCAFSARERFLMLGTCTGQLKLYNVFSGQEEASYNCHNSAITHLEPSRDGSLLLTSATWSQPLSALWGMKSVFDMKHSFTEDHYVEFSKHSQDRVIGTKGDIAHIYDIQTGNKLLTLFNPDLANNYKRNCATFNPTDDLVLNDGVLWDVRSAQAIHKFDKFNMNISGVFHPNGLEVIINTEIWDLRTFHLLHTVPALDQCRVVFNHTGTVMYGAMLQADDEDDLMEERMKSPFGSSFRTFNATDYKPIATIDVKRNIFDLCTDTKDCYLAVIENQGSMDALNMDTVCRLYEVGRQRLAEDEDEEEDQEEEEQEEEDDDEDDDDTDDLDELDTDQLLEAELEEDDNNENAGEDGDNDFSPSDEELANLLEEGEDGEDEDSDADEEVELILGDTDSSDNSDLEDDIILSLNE
WDR5: WD repeat-containing protein 5 (WDR5, Homo sapiens, UniProt P61964)
DCAF1; 63.41 °C: 52700 a.u.
WDR5; 35.4 °C: 14300 a.u.
DCAF1; 79.81 °C: 44400 a.u.
WDR5; 86.61 °C: 42400 a.u.
WDR5; 62.81 °C: 8920 a.u.
WDR5; 43.2 °C: 14400 a.u.
WDR5; 37.8 °C: 14400 a.u.
WDR5; 53.21 °C: 14300 a.u.
WDR5; 85.41 °C: 40300 a.u.
DCAF1; 80.81 °C: 43500 a.u.
WDR5; 89.81 °C: 43300 a.u.

Some of these lines once more (series 2):
0.01235 µM: 79.3%
cell-free assay, inhibitor, TR-FRET; 0.1111 µM: 101%
0.00412 µM: 43.2%
cell-free assay, inhibitor, TR-FRET; 1 µM: 99.3%
